# Measurements gathered from unrelated publications.
# Parts stem from different laboratories: compare values within a part only. Substitutions count along the parent as printed.

# Set 1 — target: FOSL1, bZIP domain (human); technique: DHFR protein complementation; matrix: yeast; relative to: wild-type JUN-FOS pair; reading: higher = stronger binding
# Notes: single substitutions, most at no-binding floor
# Parent: JUN, bZIP domain (human); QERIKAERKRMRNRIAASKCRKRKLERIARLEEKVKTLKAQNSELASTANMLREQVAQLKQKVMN; partner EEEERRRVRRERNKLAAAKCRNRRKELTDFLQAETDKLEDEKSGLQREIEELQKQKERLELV
Change,binding fitness [natural log]
M51K,-0.364
K39R,-0.241
S43A,-0.202
K36E,-0.436
E32M,-0.483
A40W,-0.802
M51Y,-0.438

# Set 2 — technique: RNA Bind-n-Seq; molecule type: RNA; matrix: in vitro; concentration: 365 nM; relative to: no-protein control; reading: higher = stronger binding
# Target: RNA binding protein fox-1 homolog 2, RRM domain, GST-SBP tag (RBFOX2, Homo sapiens, UniProt O43251-10, residues 100-194)
# Notes: natural RNA segment, single round, ends assumed
# All sequences stand within: GGGAGUUCUACAGUCCGACGAUC … UGGAAUUCUCGGGUGCCAA
# Residues (chain): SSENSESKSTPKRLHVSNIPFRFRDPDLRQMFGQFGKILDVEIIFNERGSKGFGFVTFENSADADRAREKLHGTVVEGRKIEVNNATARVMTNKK
Sequence,RBNS enrichment (R)
CACCCAGAGGCAUUAACAGGUCCCCAGACUAGGGCCUACACUGAGGGUAGAACCUGGAACCACAGUUGUUGCUGACCUGCUGGAAUGAAGUCAGAGUAUCAUCUAAAGUU,2.77
CAGGCGGAUCACCUGAGGCCAGGAAUUCAAGACCAGCCUGGCCAACAUGGUGAAACCCUAUCUCCACUAAAAAUACAAAAUUAGCUGGGUGUGGUGGCGCAUGCCUGUAA,0.811
GCAGCUUGGGCUGACCCAGCAUCUCUGCAAGAUUUCCACCUGCUGGGCUGCCAGAGAGGUUUGUAGCCCGGCCCUGACUGCAUCCUCCCCAUCCCUGGGGCAACAUUCCC,0.857
UUGGGCCUGUACACUCCAGCUCUAAGGGCCAGUAGUUUGAAGCCCUAUAAGUGGUGCCCAGUGUUCAUGGGGUCUGGUCUUUGACCGGCCUCUGGUGCCCACUUUUGUCU,0.57
CUUAUCCACCACGCUAUUAUAGUUUCCGUUGUCCUCCACCAGCAUUUCCCUUACUCUGAAGUUCCGGCAUUCACAUCAUUCAUGUUUUCUUUUGUCUUUUAGCUAAAGGA,0.568
UAGCUAUGAAGAAAACACAAAGUGUAUAAAUCUGAGUAUAUAUUUACAUGUCUUUUUAAAAGGGUCGUACCAGAGAUUUACCCAUCGGGUAAGAUGCUCCUGGUGGCUGG,0.396
UUGAAAUGAUUUAAUAAUAUGAGUGAGGAUUUGCUUUCUCCAUUAGAGCAUUAAGCUAAAACUAUCAACAUUUUAAACCAAAUUGCCUUAUUUUUCUUCCAAACUUCAUA,0.604
AGUACAAAGACACGAUUACAUAACCAGGUUCAAGGGGGACUUCUGCUUAUCAGUGCUAGGGAUGGGACCCAGGACCUCACCCACGCCAGGCUGAGCUAUGUCCCCAACCC,0.597
CUCAUUUACAACUCUGAUUUUCAAACAGAAAAAGUCUUUACAGCUAUAUAGGGGCACCCCAGACGCUGCAGUGACUUCAGCUAUCAACAAACUGUUAACCAUGUACAAUA,0.848
GGCUUUUGGCCCUUGGCCAGAAGUGCAUGCUUUUCCUGAGCAGAGCACUUAGCAACCUUCCCCUCUCACGGAGCUGCUGUCCUCCAGAUGGGUGCUAAUGGGAUUGGGCU,0.658
UUGCCCUGAAGUCUUACCUUCUCCCAUUGCAUUCAAGGCCUAUAGCACAAAGUGCAUCUCAGAGAUGUGCUAGUGGCUUAUCCUGGGCUUGGCCUGCAACAUGGGAGGCU,0.336

# Set 3 — target: CCNF, cyclin fold, Cln2 fusion (human); technique: yeast growth competition, sequencing; matrix: yeast; notes: strong parent motif; relative to: not given; reading: higher = stronger binding
# Parent: REPIN1 docking peptide (human); QSFRGWVALVLHL
Change,normalised enrichment score
QSFRGWVALVLAL [H12A],2.12
QSFRGWVALVAHL [L11A],2.21
QSFRAWVALVLHL [G5A],2.72
QSFRGWVALVLHA [L13A],2.44
QSARGWVALVLHL [F3A],1.75
QSFAGWVALVLHL [R4A],1.37

# Other studies, line by line
Substance,target,test,test system,setting,how to read,quantity,result
"PhoQ, residues 284 288 289 292 302 303 ALVSVA","PhoP, residues 12 14 15 18 19 LHTVM (Escherichia coli, UniProt P23836)","Sort-seq, refers to: YFP reporter",E. coli,"PhoQ-PhoP variant library, together with: 10 µM Mg2+","relative to: high Mg2+ state, higher = stronger signaling",fold induction,16.6

# Some of these lines once more (set 2):
Sequence,RBNS enrichment (R)
UUGAAAUGAUUUAAUAAUAUGAGUGAGGAUUUGCUUUCUCCAUUAGAGCAUUAAGCUAAAACUAUCAACAUUUUAAACCAAAUUGCCUUAUUUUUCUUCCAAACUUCAUA,0.604
AGUACAAAGACACGAUUACAUAACCAGGUUCAAGGGGGACUUCUGCUUAUCAGUGCUAGGGAUGGGACCCAGGACCUCACCCACGCCAGGCUGAGCUAUGUCCCCAACCC,0.597
GGCUUUUGGCCCUUGGCCAGAAGUGCAUGCUUUUCCUGAGCAGAGCACUUAGCAACCUUCCCCUCUCACGGAGCUGCUGUCCUCCAGAUGGGUGCUAAUGGGAUUGGGCU,0.658
